Measurements pooled from the literature.
Parts stem from different laboratories: compare values within a part only. Substitutions count along the parent as printed.

Sample 1 — technique: protein-binding microarray; molecule type: double-stranded DNA, one strand shown; sample: in vitro; concentration: 0.8 µM; setting: whole 60-bp probe, no competitor; reading: higher = stronger binding; all sequences stand within: … GTCTTGATTCGCTTGACGCTGCTG
Target: Centromere-binding protein 1, full length, N-terminal tag (CBF1, Saccharomyces cerevisiae, UniProt P17106, residues 1-351)
Sequence of UniProt P17106 (whole entry, looked up): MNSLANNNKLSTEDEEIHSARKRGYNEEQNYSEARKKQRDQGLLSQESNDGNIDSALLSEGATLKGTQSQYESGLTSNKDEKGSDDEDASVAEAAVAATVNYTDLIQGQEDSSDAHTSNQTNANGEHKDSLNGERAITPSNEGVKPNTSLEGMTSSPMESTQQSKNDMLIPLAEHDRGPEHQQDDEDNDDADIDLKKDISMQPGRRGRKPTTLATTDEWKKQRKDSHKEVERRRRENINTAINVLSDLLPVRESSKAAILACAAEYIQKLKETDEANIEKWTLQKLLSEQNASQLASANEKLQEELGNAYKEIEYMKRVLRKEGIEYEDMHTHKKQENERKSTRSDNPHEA
With `CTAACTCCGGCTCTTTACGTGCCACAATTATTATTC` the fluorescence intensity was 538 a.u.
`CTAATAAAAACAAGCAAGGTGATCGTCAAACTGTTC` gave a fluorescence intensity of 555 a.u.
`CTAGGCAAAATGTGGAGCACGAAAAAATATAAATTC` has a fluorescence intensity of 563 a.u.
`GAATATGTTTATTTTTACGTGGGTTATAAAGACTAG` has a fluorescence intensity of 523 a.u.
For `CTAATGGGAATCCCCTACGTGGCACTTAGATACTTC`, the fluorescence intensity was 498 a.u.
`CTAAAAAGGACTTGTCACATGAAATTTAGGTCGTTC` has a fluorescence intensity of 898 a.u.
With `CTACTTTCCGATTATCACACTTTAGGAGCCGTGTTC` the fluorescence intensity was 562 a.u.
For `GAAATGAACTTGTACGTCACCACTTTGTGCGCATAG`, the fluorescence intensity was 531 a.u.
`GAAGATGCATCTTTTCACATGGTCCACTGTTTTTAG` gave a fluorescence intensity of 599 a.u.
`GAAAATCAAGAATGTCACCAATTTTCTGCGATATAG` gave a fluorescence intensity of 514 a.u.
For `GAAGAAACTCCCGCACGTGTGCCCCGTTTGTTGTAG`, the fluorescence intensity was 4960 a.u.
`GAATTGAGGAGAGACATGATGATGGTTCTCTGGTAG` gave a fluorescence intensity of 536 a.u.

Sample 2 — target: CCND1, cyclin fold, Cln2 fusion (human); technique: yeast growth competition, sequencing; sample: yeast; setting: strong parent motif; baseline: not given; reading: higher = stronger binding
Starting sequence: SCAPER docking peptide (human); SNARRSLNFGGST
Under “normalised enrichment score”, `F9I` is recorded as -0.0425.
`T13D`: “normalised enrichment score” 2.14.
`A3P` — result for “normalised enrichment score”: 0.375.
Under “normalised enrichment score”, `S12F` is recorded as 1.06.
`R5L`: “normalised enrichment score” 0.639.
`S6L`: “normalised enrichment score” 0.734.
For `R5F`, “normalised enrichment score” read 0.94.
`N8R`: “normalised enrichment score” -0.013.

Sample 3 — technique: RNA Bind-n-Seq; molecule type: RNA; sample: in vitro; concentration: not given; setting: RNA with constant flanks, ends assumed; baseline: input RNA pool; reading: higher = stronger binding
Target: RING finger protein unkempt homolog, zinc fingers 1-6, GST-SBP tag (UNK, Homo sapiens, UniProt Q9C0B0, residues 30-357)
All sequences stand within: GGGAGUUCUACAGUCCGACGAUC … CAACAGAGGAUUGAGCAUCA
Construct (chain): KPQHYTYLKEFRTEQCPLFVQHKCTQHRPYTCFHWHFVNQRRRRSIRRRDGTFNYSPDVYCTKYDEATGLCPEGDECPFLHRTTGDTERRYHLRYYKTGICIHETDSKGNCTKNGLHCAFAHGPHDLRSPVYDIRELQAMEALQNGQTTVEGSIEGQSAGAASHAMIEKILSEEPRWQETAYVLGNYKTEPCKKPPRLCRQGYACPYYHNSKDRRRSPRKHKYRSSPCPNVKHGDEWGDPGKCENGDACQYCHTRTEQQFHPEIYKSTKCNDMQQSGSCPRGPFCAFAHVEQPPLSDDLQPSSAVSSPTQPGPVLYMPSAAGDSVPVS
With `CUAGGUGUGAGAGCUCUGGGGCACUGUGGGUGCGGUGAUCUGCAGGUAAAGCCCCACACCACCGACAGUGCUCUGUAGGAAUAUAUGAAGGAUAUUUGCUUCUUGUGAGUCCAUUUCUUA` the bound/input enrichment was 0.498 ratio.
For `AACGCCAUGAAUUCCUUUGUUUAAUUUUUAAGCUCUUUGCCAAUAUUCCAUUUCUCCCGAAUGUUUAUCCUAAGCACUUGUUUGUCAGCCCUCUCAUACUAUGAACAUAUGGGUAGAGAG`, the bound/input enrichment was 1.02 ratio.
With `AGAAAAAUCCAUCUCUCUGAAUUAAUGCUUGAGAAAUGCCCUUUUCCUGCUGGCUCAGAUUCCGCCCAAAAAUGGCAUUUGAUUAAACAGCAUACAGCUCCUGUGAGCCCACAUUCAACA` the bound/input enrichment was 0.189 ratio.
`GCUGGGGCAGAGCUCAGCACCCUCAGCCCUGCGGCCGUUCAUCUUGUGUGUUUGUGACUUACUUUUGCCGCCUGUCAUCUUCUGGGCCCAGAGUCAGGGUCUCUGUGUCCCCUGUGCCUC` has a bound/input enrichment of 0.248 ratio.
For `AUGGGGUGGGAGGGGGAAAAAGGCCGACAACACUCGACCGCUUGUUUUGUGCCAAAUGCUUUCCGAUAAGGACAUAAUGUUUUUGACUGAUGUAAAUACUAACUCUAGAAUAGGCAGGAU`, the bound/input enrichment was 0.786 ratio.
The bound/input enrichment of `ACCAGGGAUGAGACCAACUAUGGAAUUCCACAGCGUGCUCUGCGGGGUCACUCCCACUUUGUCCGUGAUGUGGUUAUCUCCUCAGAUGGCCAGUUUGCCCUCUCAGGCUCCUGGGAUGGA` is reported as 0.0475 ratio.
The bound/input enrichment of `AGCACCUACUGUGUUCUCAACACCGUGCCACCUAUAGAAGAUGAUCAUGGGAACAGCAACCGCCGUCAUGUAAAAAUCUUUUUACCGAAAAAGCUGCUUGAAUGUCUGCCGAAAUGUUCA` is reported as 0.0869 ratio.

Mixed results
`PhoQ, residues 284 288 289 292 302 303 NLGVHL` gave a fold induction of 5.93 (PhoP, residues 12 14 15 18 19 TQAIL (Escherichia coli, UniProt P23836); Sort-seq, measured: YFP reporter; E. coli; PhoQ-PhoP variant library, added: 10 µM Mg2+; baseline: high Mg2+ state, higher = stronger signaling).
